Measured values of several laboratories.
Every numbered part comes from another study and shows a few of its results, in no order. Positions count from the first letter of the parent shown.

Series 1 — technique: universal PBM; form: double-stranded DNA, one strand shown; sample: in vitro; concentration: 600 nM; reading: higher = stronger binding; endpoint: E-score
Target: Sal-like protein 4, full length isoform A (SALL4, Homo sapiens, UniProt Q9UJQ4, residues 1-1053)
UniProt Q9UJQ4, sequence (whole entry, looked up): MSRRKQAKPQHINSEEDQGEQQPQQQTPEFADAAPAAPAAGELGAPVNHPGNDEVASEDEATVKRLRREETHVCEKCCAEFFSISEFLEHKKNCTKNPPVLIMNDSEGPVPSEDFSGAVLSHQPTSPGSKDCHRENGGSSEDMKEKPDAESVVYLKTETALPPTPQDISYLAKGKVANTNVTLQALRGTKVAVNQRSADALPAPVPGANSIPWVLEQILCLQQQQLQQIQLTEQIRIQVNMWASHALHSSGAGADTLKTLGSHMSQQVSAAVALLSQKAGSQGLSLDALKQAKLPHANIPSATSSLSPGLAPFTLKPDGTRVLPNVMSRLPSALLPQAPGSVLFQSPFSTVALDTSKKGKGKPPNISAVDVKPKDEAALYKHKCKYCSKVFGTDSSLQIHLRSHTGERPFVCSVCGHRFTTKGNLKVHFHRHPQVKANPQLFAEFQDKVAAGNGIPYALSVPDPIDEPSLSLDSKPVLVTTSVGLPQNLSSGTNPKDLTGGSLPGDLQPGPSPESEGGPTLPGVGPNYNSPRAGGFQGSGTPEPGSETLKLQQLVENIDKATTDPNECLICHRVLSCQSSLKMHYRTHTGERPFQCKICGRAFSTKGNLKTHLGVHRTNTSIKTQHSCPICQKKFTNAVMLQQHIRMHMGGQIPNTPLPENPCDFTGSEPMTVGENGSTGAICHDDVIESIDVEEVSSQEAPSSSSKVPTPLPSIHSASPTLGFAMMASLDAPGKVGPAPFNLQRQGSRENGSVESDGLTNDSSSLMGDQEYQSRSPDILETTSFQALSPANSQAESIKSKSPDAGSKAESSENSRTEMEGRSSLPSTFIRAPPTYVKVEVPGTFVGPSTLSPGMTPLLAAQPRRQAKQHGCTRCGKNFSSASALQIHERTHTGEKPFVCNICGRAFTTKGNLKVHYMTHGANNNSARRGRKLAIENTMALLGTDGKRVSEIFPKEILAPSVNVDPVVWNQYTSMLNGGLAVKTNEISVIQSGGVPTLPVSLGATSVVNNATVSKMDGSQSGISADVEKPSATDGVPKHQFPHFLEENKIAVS
Notes: 8-mer, flanks averaged, mean of replicates
CCTATAGA: 0.156
AAATCCGT: 0.123
ATGCAGCA: -0.0663
GTCCATGA: -0.00671
AACTGCTA: 0.0624
AAATTGAT: 0.259
ACATCATG: 0.0156
CGCCGGCG: -0.222
AGAGACCC: -0.213
ATGGACTA: 0.106
GAACCCTC: -0.314
CTATCTAC: 0.0677
ATGCAGAA: 0.144
CGTTACCC: -0.24
AGATATCG: 0.0339
GGCTAACC: -0.258
AAGAAATG: 0.248

Series 2 — technique: protein-binding microarray; form: double-stranded DNA, one strand shown; sample: in vitro; concentration: 940 nM top; notes: 60-bp whole probe; with: salmon DNA 0.4 mg/ml; relative to: random background probes; reading: higher = stronger binding; endpoint: fitted relative affinity; shared flanks, not repeated: GCCTAGCAC … GTCTTGATTCGCTTGACGCTGCTG
Target: Interferon regulatory factor 5, full length, phosphomimetic (IRF5, Homo sapiens, UniProt Q13568-2, residues 1-514, S451D/S453D/S456D/S462D)
GACGATATCAGTCTCGTGACGTGCTAG: -0.0591 z-score
TTATATCTCAGACTGGATTAGTGCTAG: 0.406 z-score
TTAGGTTACCTACTGCTTTAGTGCTAG: -0.294 z-score
TCACCCATGAGTCTCAAACTGTGCTAG: 0.268 z-score
GACGGTATCGGTTTCGTGACGTGCTAG: 8.82 z-score
TTAGAAATGAGTATCGATTAGTGCTAG: 4.6 z-score
TTAAATTTCAGACTGGATTAGTGCTAG: -0.11 z-score
GAAGGACTGGGTATCGGGACGTGCTAG: 0.473 z-score
TTAGGTCTCGGACTGGATTAGTGCTAG: 0.976 z-score
TTAGGTTTCTGGTTTCGGTTAGTGCTA: 9.19 z-score
TTAGGCATCCTTTTCCTTTAGTGCTAG: -0.278 z-score
GACGATTTCAGTCTCGAGCCGTGCTAG: 0.947 z-score
GATGATTTCGGGACTGGAGACGTGCTA: 0.14 z-score
GATGAACTGAGACTGGAGACGTGCTAG: -0.0328 z-score
TCAAATCTGTGTTATTAAACTGTGCTA: 0.318 z-score

Series 3 — target: CCND2, cyclin fold, Cln2 fusion (human); technique: yeast growth competition, sequencing; sample: yeast; notes: weak parent motif; relative to: not given; reading: higher = stronger binding; endpoint: normalised enrichment score
Parent: CDKN1B docking peptide (human); PSACRNLFGPVDH; partner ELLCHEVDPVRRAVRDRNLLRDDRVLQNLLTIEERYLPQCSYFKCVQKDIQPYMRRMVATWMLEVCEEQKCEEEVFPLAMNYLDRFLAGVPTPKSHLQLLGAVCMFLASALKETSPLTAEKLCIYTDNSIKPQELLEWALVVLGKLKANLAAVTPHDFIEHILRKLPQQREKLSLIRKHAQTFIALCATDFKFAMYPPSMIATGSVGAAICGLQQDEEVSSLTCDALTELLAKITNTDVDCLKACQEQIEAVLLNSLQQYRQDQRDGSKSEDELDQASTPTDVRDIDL
S2A: 0.0946
V11K: 0.049
S2F: 0.335
G9L: 0.272
A3R: -0.014
H13T: 0.122
P1S: -0.0311
N6K: 0.386
V11W: 0.415
L7C: -0.346
L7W: -0.0168
C4T: 0.0349

Series 4 — technique: RNA Bind-n-Seq; form: RNA; sample: in vitro; concentration: 365 nM; relative to: no-protein control; reading: higher = stronger binding; endpoint: RBNS enrichment (R)
Target: RNA binding protein fox-1 homolog 2, RRM domain, GST-SBP tag (RBFOX2, Homo sapiens, UniProt O43251-10, residues 100-194)
Notes: natural RNA segment, single round, ends assumed
Shared flanks, not repeated: GGGAGUUCUACAGUCCGACGAUC … UGGAAUUCUCGGGUGCCAA
Construct (chain): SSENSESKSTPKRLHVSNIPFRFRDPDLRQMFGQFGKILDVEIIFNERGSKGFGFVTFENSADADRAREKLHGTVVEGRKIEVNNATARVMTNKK
GAGCCCUUAAAAAGACUUGAAAGUUCACUGGGACUCAGUUUACCUUAAUGCCUUAGCAGAAGAUAAAUCCUACCUAGAGACCUUUGUUCCUUAAAGCAAUAACUGACAAC: 0.192
CGUCUGUGUGUAACUCACCCAGAGCAGAUCUGUGAGUCUCGAUGUGCUUUGUAAUCUCUGCUUGAGUGUUGCCCAUACUGGGCUGUGGCUUUGAAGGUCAUUUGCACAAG: 0.287
GAACUUCAAGUAGCAGUUCAAAAGAUGUCAGUUUUUAAAAUUGUUUUUGUUGUUGUCUUGGCAGUUUUACUGAACCCUUUGCAUAAAGAACAAAAUAAAAGCUCGGCAUU: 0.743
GGAAUUCCUUCAUUUUCUAUAAAAAUGUCAAAAAAAAGCAAUGCUACCUCCAGCCUUAGGUCUUUUGAACUGCCCACUGUUGAGAUGAGUUUUUCUUUUGCCAUACAAAG: 0.48
GUCUCUGUCUUAUUGCAGCUCCAGGCCUGACGUUUUACGGUUUUGUUUUUUACUGGUUUGUGUUUAUAUUUUCGGGGAUACUUAAUAAAUCUAUUGCUGUCAGAUACCCU: 0.758
CUGCACUAAUUCCCUUCUUCCUCUAGCAGACUGCCUUGGGAAGGACCUUCAGUCCAGGACAGACCCUGUCAUGGCUUCUUGCUGUCUUACCCUUCUCACUCACCAGGCCC: 0.6
CCAGAACCCUCUGCGCCUUGAGAUGAGUCUGCCAUGAGAACUUGCUCACGCUGCAGAGUCUCUGUGGCGUACCUGGGGGCAUUCUAAGUCCAGUGACUUUUGAAAUUCAA: 0.232
GACAAUAUAUCAUAACUUAAUAAAUAUUGUAUUUUAGAUAUAUUCUCUAAUAAAAUUCAGAAUUCUAUUCUGGGUUAUUUAUUUAUUUAUUUUUAUUAUACUUUAAGUUU: 1.42

Series 5 — technique: DHFR PCA, dose-response; sample: yeast; notes: Hill fit, mean, not affinity; with: (+)-ABA, dose series; reading: lower = more sensitive; endpoint: ABA EC50
Target: ABI1, truncated, D143A, DHFR fusion (Arabidopsis thaliana, UniProt P49597)
Parent: PYL1, truncated, DHFR fusion (Arabidopsis thaliana, UniProt Q8VZS8); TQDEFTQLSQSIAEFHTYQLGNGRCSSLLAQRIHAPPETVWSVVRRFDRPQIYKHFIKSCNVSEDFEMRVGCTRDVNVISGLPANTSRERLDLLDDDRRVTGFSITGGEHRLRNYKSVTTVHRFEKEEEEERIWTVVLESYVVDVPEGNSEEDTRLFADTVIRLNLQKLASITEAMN
V100A: 4.07 µM
V43H: 43.1 µM
Y53F: 15.8 µM
I57L: 4.71 µM
R24N: 8.6 µM
R155E: 89.2 µM
V76T: 37.5 µM
W134K: 13.7 µM
R46D: 60.8 µM
E130H: 2.65 µM
E174S: 9.83 µM
Q167R: 0.421 µM
F66I: 10 µM
T17P: 222 µM
S27R: 32.5 µM
L29I: 2.41 µM
R88M: 4.4 µM
R155H: 37.8 µM
E89Q: 765 µM
A13C: 6.19 µM
D65C: 4.49 µM
